Measurements gathered from unrelated publications.
Protocols differ between the studies behind these lines. ± marks the error that the study gave.

Structure (SMILES) | test | system | conditions | fraction unbound
CN(C)S(=O)(=O)NC(=O)CCc1ccccc1 |  | human plasma |  | 0.08
CNC(C)Cc1ccc2c(c1)OCO2 (centres unmarked) | rapid equilibrium dialysis | human plasma | 1000 ng/mL | 0.88
CS(=O)(=O)NC(=O)CCc1ccccc1 |  | human plasma |  | 0.13
CC(C)N(CCC(C(N)=O)(c1ccccc1)c1ccccn1)C(C)C (centres unmarked) | equilibrium dialysis | human plasma |  | 0.161
C=CC(=O)N[C@H]1C=C(C)c2c(-c3cnc4ccccc4c3)c3c(N)ncnc3n2C1 | equilibrium dialysis | rat plasma | 5 µM, 18 h, pH 7.4 | 0.154 ± 0.03
O=c1c(O)c(Cc2ccccc2)c1=O |  | human plasma |  | 0.08
O=c1ccc2ccccc2o1 |  | human plasma |  | 0.31
O=C1CCC(O)=C1Cc1ccccc1 |  | human plasma |  | 0.14
Cc1sc2c(c1C)C(c1ccc(Cl)cc1)=N[C@@H](CC(=O)Nc1ccc(O)cc1)c1nnc(C)n1-2 | equilibrium dialysis | mouse brain homogenate | 1 µM, 6 h, pH 7.4 | 0.0305 ± 0.0099
O=c1c(O)c(NCc2ccccc2)c1=O |  | human plasma |  | 0.06
COc1ccc2c(c1)[C@]13CCCC[C@@H]1[C@H](C2)N(C)CC3 | rapid equilibrium dialysis | human plasma | 2 µM, 6 h, pH 7.4 | 0.455
CCCC[C@@H]1NC(=O)[C@H](Cc2ccc(O)cc2)NC(=O)[C@@H]2CCCN2C(=O)[C@H](CC(=O)O)NC(=O)[C@H](C)NC(=O)[C@H](Cc2ccccc2)NC(=O)[C@@H]2CSCCC(=O)N3CN(CN(C3)C(=O)CCSC[C@@H](C(N)=O)NC1=O)C(=O)CCSCCC(=O)N[C@@H](CC(C)(C)C)C(=O)N1CCC[C@H]1C(=O)N[C@@H](CCC(=O)O)C(=O)N[C@H](CCCCNC(=O)CCc1cn(CCOCCOCCOCCN(CCOCCOCCOCCC(=O)N[C@H]3CSCCC(=O)N4CN5CN(C4)C(=O)CCSC[C@H](NC(=O)[C@@H](CC(=O)O)NC(=O)[C@H](Cc4cccc6ccccc46)NC(=O)[C@@H]4CCCN4C3=O)C(=O)N[C@@H](CCSC)C(=O)N[C@@H](CCCCNC(=N)N)C(=O)N[C@@H](CC(=O)O)C(=O)N[C@@H](Cc3c[nH]c4ccccc34)C(=O)N[C@@H](CO)C(=O)N[C@@H]([C@@H](C)O)C(=O)N3CCC[C@H]3C(=O)N3C[C@H](O)C[C@H]3C(=O)N[C@@H](Cc3c[nH]c4ccccc34)C(=O)N[C@H](C(N)=O)CSCCC5=O)CCOCCOCCOCCn3cc(CCC(=O)NCCCC[C@H]4NC(=O)[C@H](CCC(=O)O)NC(=O)[C@@H]5CCCN5C(=O)[C@H](CC(C)(C)C)NC(=O)CCSCCC(=O)N5CN6CN(C5)C(=O)CCSC[C@H](NC(=O)[C@H](Cc5ccc(O)cc5)NC(=O)[C@@H]5CCCN5C4=O)C(=O)N[C@@H](Cc4ccccc4)C(=O)N[C@@H](C)C(=O)N[C@@H](CC(=O)O)C(=O)N4CCC[C@H]4C(=O)N[C@@H](Cc4ccc(O)cc4)C(=O)N[C@@H](CCCC)C(=O)N[C@H](C(N)=O)CSCCC6=O)nn3)nn1)C(=O)N1CCC[C@H]1C(=O)N[C@@H](Cc1ccc(O)cc1)C(=O)N2 | ultracentrifugation | rat plasma |  | 0.088
c1cc(-c2ccc3ncnc(Nc4ncco4)c3c2)cc(N2C[C@H]3C[C@@H]2CO3)c1 |  | human plasma |  | 0.0089
CC(C)CC(=O)OC[C@H]1O[C@@](C#N)(c2ccc3c(N)ncnn23)[C@H](O)[C@@H]1O |  | dog plasma | 0.9 µM | 0.366
CN1C(=O)Cc2ccc(F)c(CCNC[C@H]3CN(c4ccc5c(n4)NC(=O)CO5)C(=O)O3)c21 | equilibrium dialysis | human plasma, 10% | 10 µM, 18 h | 0.02
O=S(=O)(Cc1ccccc1)c1ccccc1O |  | human plasma |  | 0.02
CN1C(=O)Cc2ccc(F)c(CNCCCC3CN(c4ccc5c(n4)NC(=O)CO5)C(=O)O3)c21 (centres unmarked) | equilibrium dialysis | human plasma, 10% | 10 µM, 18 h | 0.09
N=C(CC(O)c1cc2c(F)cc(F)cc2c2cc(C(F)(F)F)ccc12)Nc1ccc(F)c(F)c1 (centres unmarked) | equilibrium dialysis | human plasma | 100 ng/mL, 24 h, 0.9% saline dilution | 0.002
Cc1onc(-c2c(F)cccc2Cl)c1C(=O)N[C@@H]1C(=O)N2[C@@H]1SC(C)(C)[C@@H]2C(=O)O |  | spiked plasma of healthy donors |  | 0.04 to 0.05
Cn1c(=O)ccc2ccc(F)c(CCNC[C@H]3CN(c4ccc5c(n4)NC(=O)CO5)C(=O)O3)c21 | equilibrium dialysis | human plasma, 10% | 10 µM, 18 h | < 0.01

Excerpt of the above:
Structure (SMILES) | test | system | conditions | fraction unbound
CC(C)CC(=O)OC[C@H]1O[C@@](C#N)(c2ccc3c(N)ncnn23)[C@H](O)[C@@H]1O |  | dog plasma | 0.9 µM | 0.366
C=CC(=O)N[C@H]1C=C(C)c2c(-c3cnc4ccccc4c3)c3c(N)ncnc3n2C1 | equilibrium dialysis | rat plasma | 5 µM, 18 h, pH 7.4 | 0.154 ± 0.03
